{"data": "Literature values as cited in several papers", "note": "Lines come from different studies, so protocols differ. “And” joins repeats or separate records; there may be more than shown. ± gives the spread as reported.", "chain of UniProt P31645 (whole entry, looked up)": "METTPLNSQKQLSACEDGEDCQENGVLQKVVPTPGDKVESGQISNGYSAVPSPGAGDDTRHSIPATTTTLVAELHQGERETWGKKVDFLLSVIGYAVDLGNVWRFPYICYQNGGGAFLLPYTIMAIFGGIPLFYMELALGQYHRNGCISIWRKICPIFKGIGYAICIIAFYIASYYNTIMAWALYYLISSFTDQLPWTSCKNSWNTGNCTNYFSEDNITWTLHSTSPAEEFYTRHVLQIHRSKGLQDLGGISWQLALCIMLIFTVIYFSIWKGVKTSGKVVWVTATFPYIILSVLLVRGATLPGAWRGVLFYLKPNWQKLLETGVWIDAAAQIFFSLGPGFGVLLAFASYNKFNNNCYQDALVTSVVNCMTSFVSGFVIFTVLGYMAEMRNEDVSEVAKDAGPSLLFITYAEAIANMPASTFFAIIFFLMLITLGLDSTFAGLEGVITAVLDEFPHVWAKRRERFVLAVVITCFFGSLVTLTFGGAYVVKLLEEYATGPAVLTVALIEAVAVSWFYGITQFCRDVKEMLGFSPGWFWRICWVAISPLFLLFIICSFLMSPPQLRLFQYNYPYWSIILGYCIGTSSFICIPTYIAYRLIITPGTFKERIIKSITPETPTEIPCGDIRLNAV"}
{"SMILES": "CN(C)CCC(O)Cn1c2ccc(Br)cc2c2cc(Br)ccc21 (stereo not shown)", "target or system": "Plasmodium", "assay": "parasite growth", "quantity": "IC50", "result": "1670 nM"}
{"SMILES": "NS(=O)(=O)c1nnc(NC(=O)C2CCCCC2)s1", "target or system": "Enterococcus", "system": "vancomycin-resistant, three strains", "setting": "range across strains", "quantity": "MIC", "result": "0.861 to 1.72 µM"}
{"SMILES": "CC(C)C[C@@H](NC(=O)[C@H](C)NC(=O)CNC(=O)[C@@H](NC=O)C(C)C)C(=O)N[C@@H](C)C(=O)N[C@@H](C(=O)N[C@H](C(=O)N[C@@H](C(=O)N[C@@H](Cc1c[nH]c2ccccc12)C(=O)N[C@H](CC(C)C)C(=O)N[C@@H](Cc1c[nH]c2ccccc12)C(=O)N[C@H](CC(C)C)C(=O)N[C@@H](Cc1c[nH]c2ccccc12)C(=O)N[C@H](CC(C)C)C(=O)N[C@@H](Cc1c[nH]c2ccccc12)C(=O)NCCO)C(C)C)C(C)C)C(C)C", "target or system": "Streptococcus pneumoniae", "system": "NBRC 102642", "quantity": "MIC", "result": "0.0083 µM"}
{"SMILES": "Nc1ccc(C(=O)C=C(O)C(F)(F)C(F)(F)F)cn1", "target or system": "Plasmodium falciparum formate-nitrite transporter", "assay": "binding, FCCS", "system": "isolated protein", "quantity": "Ki", "result": "31 ± 6 nM"}
{"SMILES": "Fc1cccc(COc2ccc(Nc3ncnc4ccc(-c5cccc(N6CCCCC6)c5)cc34)cc2Cl)c1", "target or system": "Trypanosoma brucei", "assay": "parasite growth", "quantity": "EC50", "result": "760 nM"}
{"SMILES": "c1ccc2c(c1)CCNC2c1c[nH]c2cccnc12 (stereo not shown)", "target or system": "Staphylococcus aureus", "assay": "efflux pump inhibition", "system": "ATCC 25923", "setting": "50 µM", "how to read": "reference: untreated cells", "quantity": "relative fluorescence index", "result": -0.14}
{"SMILES": "CN1CCN(C(=O)c2cccc(CC(O)Cn3c4ccccc4c4ccccc43)c2)CC1 (stereo not shown)", "target or system": "Plasmodium", "assay": "parasite growth", "quantity": "IC50", "result": "14900 nM"}
{"SMILES": "O=C(c1cccc(-c2ccc3ncnc(Nc4ccc(OCc5cccc(F)c5)c(Cl)c4)c3c2)c1)N1CCCC1", "target or system": "Trypanosoma brucei", "assay": "parasite growth", "quantity": "EC50", "result": "520 nM"}
{"SMILES": "CCN(CC)CC#CCNc1ccnc2cc(Cl)ccc12", "target or system": "Plasmodium falciparum", "assay": "parasite growth, SYBR Green I", "system": "3D7", "quantity": "IC50", "result": "48.8 nM and 43.2 nM"}
{"SMILES": "c1ccc2c(c1)CCNC2c1c[nH]c2ccncc12 (stereo not shown)", "target or system": "Escherichia coli", "assay": "efflux pump inhibition", "system": "AG100A AcrAB-TolC deleted", "setting": "50 µM", "how to read": "reference: untreated cells", "quantity": "relative fluorescence index", "result": 0.42}
{"SMILES": "O=S(=O)(c1ccc(-c2ccc3ncnc(Nc4ccc(OCc5cccc(F)c5)c(Cl)c4)c3c2)cc1)N1CCCC1", "target or system": "Trypanosoma brucei", "assay": "parasite growth", "quantity": "EC50", "result": "350 nM"}
{"SMILES": "CCCCCCCCCC(=O)NC1CCCC1", "target or system": "Pseudomonas aeruginosa", "system": "PAO1", "setting": "50 µM", "quantity": "pyocyanin inhibition", "result": "50%"}
{"SMILES": "c1ccc2c(c1)CCNC2c1c[nH]c2cnccc12 (stereo not shown)", "target or system": "Staphylococcus aureus", "assay": "efflux pump inhibition", "system": "ATCC 25923", "setting": "50 µM", "how to read": "reference: untreated cells", "quantity": "relative fluorescence index", "result": -0.09}
{"SMILES": "CC(C)C[C@@H](NC(=O)[C@H](C)NC(=O)CNC(=O)[C@@H](NC=O)C(C)C)C(=O)N[C@@H](C)C(=O)N[C@@H](C(=O)N[C@H](C(=O)N[C@@H](C(=O)N[C@@H](Cc1c[nH]c2ccccc12)C(=O)N[C@H](CC(C)C)C(=O)N[C@@H](Cc1c[nH]c2ccccc12)C(=O)N[C@H](CC(C)C)C(=O)N[C@@H](Cc1c[nH]c2ccccc12)C(=O)N[C@@H](C(=O)N[C@@H](Cc1c[nH]c2ccccc12)C(=O)NCCO)C(C)C)[C@H](C)O)C(C)C)C(C)C", "target or system": "Streptococcus pyogenes", "system": "SSI-9", "quantity": "MIC", "result": "0.067 µM"}
{"SMILES": "Fc1cccc(COc2ccc(Nc3ncnc4ccc(-c5ccc(N6CCCCC6)cc5)cc34)cc2Cl)c1", "target or system": "Trypanosoma brucei", "assay": "parasite growth", "quantity": "EC50", "result": "380 nM"}
{"SMILES": "CCCCCCCCCCCCn1nnc(CC(=O)O)n1", "target or system": "Pseudomonas aeruginosa", "system": "PAO1", "setting": "50 µM", "quantity": "pyocyanin inhibition", "result": "no inhibition"}
{"SMILES": "CN1CCN(S(=O)(=O)c2ccc(-c3ccc4ncnc(Nc5ccc(OCc6ccccc6)cc5)c4c3)cc2)CC1", "target or system": "Trypanosoma brucei", "assay": "parasite growth", "quantity": "EC50", "result": "630 nM"}
{"SMILES": "CN1CCN(C(=O)c2cccc(CC(O)Cn3c4ccc(Cl)cc4c4cc(Cl)ccc43)c2)CC1 (stereo not shown)", "target or system": "Plasmodium", "assay": "parasite growth", "quantity": "IC50", "result": "1130 nM"}
{"SMILES": "NS(=O)(=O)c1nnc(NC(=O)CN2CCOCC2)s1", "target or system": "Enterococcus faecalis", "system": "NR-31971", "quantity": "MIC", "result": "6.51 µM"}
{"SMILES": "Fc1cccc(COc2ccc(Nc3ncnc4ccc(-c5ccc(CN6CCOCC6)cc5)cc34)cc2Cl)c1", "target or system": "Trypanosoma brucei", "assay": "parasite growth", "quantity": "EC50", "result": "990 nM"}
{"SMILES": "CCOC(=O)[C@H]1c2ccc3ccccc3c2O[C@@H]2c3ccccc3CCN21", "target or system": "Staphylococcus aureus", "assay": "efflux pump inhibition", "system": "ATCC 25923", "setting": "50 µM", "how to read": "reference: untreated cells", "quantity": "relative fluorescence index", "result": 0.61}
{"SMILES": "O=C(CCCCCONC(=O)c1c[nH]c2ccccc12)NO", "target or system": "Plasmodium falciparum", "assay": "parasite growth", "system": "3D7", "quantity": "IC50", "result": "< 100 nM and 70 nM"}
{"SMILES": "NS(=O)(=O)c1nnc(NC(=O)CCc2ccccc2)s1", "target or system": "Enterococcus faecium", "system": "HM-965", "quantity": "MIC", "result": "0.192 µM"}
{"SMILES": "c1ccc2c3c([nH]c2c1)C(c1c[nH]c2ncccc12)NCC3 (stereo not shown)", "target or system": "Escherichia coli", "assay": "efflux pump inhibition", "system": "AG100A AcrAB-TolC deleted", "setting": "50 µM", "how to read": "reference: untreated cells", "quantity": "relative fluorescence index", "result": 0.3}
{"SMILES": "O=C(CCCCCCCCCN=C=S)CC(=O)N[C@H]1CCOC1=O", "target or system": "Pseudomonas aeruginosa", "assay": "biofilm formation", "system": "PAO1", "setting": "50 µM", "quantity": "inhibition", "result": "45%"}
{"SMILES": "COc1ccc(Nc2ncnc3ccc(-c4ccc(S(=O)(=O)N5CCN(C)CC5)cc4)cc23)cc1Cl", "target or system": "Trypanosoma brucei", "assay": "parasite growth", "quantity": "EC50", "result": "780 nM"}
{"SMILES": "Cc1cccc(-c2nc(C3CCN(C(=O)C4CC(=O)N(c5ccc(C)c(C)c5)C4)CC3)no2)c1 (stereo not shown)", "target or system": "Plasmodium", "assay": "parasite growth", "quantity": "IC50", "result": "12100 nM"}
{"SMILES": "c1ccc2c(C3NCCc4c3[nH]c3ccccc43)c[nH]c2c1 (stereo not shown)", "target or system": "Staphylococcus aureus", "system": "reference strains", "quantity": "MIC", "result": "50 µM"}
{"SMILES": "COc1ccc(Nc2nc(Nc3ccc(OCC[18F])cc3)ncc2Br)cc1", "system": "S180 tumour-bearing mice", "setting": "intravenous, 120 min", "how to read": "reference: tumour over bone", "quantity": "tumour to tissue ratio", "result": 0.66}
{"SMILES": "Cc1sc(-c2ccc(C(F)(F)F)cc2)nc1-c1nn[nH]c1C#N", "system": "ZDF rat", "setting": "1 mg/kg/day, 6 weeks", "quantity": "HbA1c at end of treatment", "result": "9.58 ± 0.14%"}
{"SMILES": "CCOC(=O)[C@H]1c2c(ccc3ccccc23)O[C@@H]2c3ccccc3CCN21", "target or system": "Staphylococcus aureus", "assay": "efflux pump inhibition", "system": "ATCC 25923", "setting": "50 µM", "how to read": "reference: untreated cells", "quantity": "relative fluorescence index", "result": 0.15}
{"SMILES": "CCN(C)C(C)CC(O)Cn1c2ccccc2c2ccccc21 (stereo not shown)", "target or system": "Plasmodium", "assay": "parasite growth", "quantity": "IC50", "result": "12700 nM"}
{"SMILES": "O=C(CCCOc1cccc(Br)c1)N[C@H]1CCSC1=O", "target or system": "Pseudomonas aeruginosa", "assay": "pyocyanin production", "system": "PA14", "setting": "100 µM", "quantity": "inhibition", "result": "80%"}
{"SMILES": "NS(=O)(=O)c1nnc(NC(=O)c2ccccc2)s1", "target or system": "Enterococcus faecium", "system": "HM-965", "quantity": "MIC", "result": "5.2 µM"}
{"SMILES": "c1ccc2c(C3NCCc4sccc43)c[nH]c2c1 (stereo not shown)", "target or system": "Escherichia coli", "assay": "efflux pump inhibition", "system": "AG100 AcrAB-TolC expressing", "setting": "50 µM", "how to read": "reference: untreated cells", "quantity": "relative fluorescence index", "result": 0.56}
{"SMILES": "CN1CCN(Cc2cccc(CC(O)Cn3c4ccc(Br)cc4c4cc(Br)ccc43)c2)CC1 (stereo not shown)", "target or system": "Plasmodium", "assay": "parasite growth", "quantity": "IC50", "result": "95 nM"}
{"SMILES": "O=C(CCCOc1ccc(Cl)cc1)N[C@H]1CCOC1=O", "target or system": "Vibrio harveyi", "assay": "bioluminescence, antagonist", "system": "BB120", "quantity": "IC50", "result": "40000 nM"}
{"SMILES": "O=C(c1cccc(S(=O)(=O)N2CCc3ccccc32)c1)N1CCC(c2nnc3ccccn23)CC1", "target or system": "Plasmodium", "assay": "parasite growth", "quantity": "IC50", "result": "18500 nM"}
{"SMILES": "O=c1ccc(OCCCN2CCCCC2)nn1-c1ccc(Cl)c(Cl)c1", "target or system": "SLC6A4 (Homo sapiens, UniProt P31645)", "setting": "1.0 µM", "quantity": "inhibition", "result": "45.34 ± 0.4%"}
{"SMILES": "CNC1CCCC(CC(O)Cn2c3ccc(Cl)cc3c3cc(Cl)ccc32)C1 (stereo not shown)", "target or system": "Plasmodium", "assay": "parasite growth", "quantity": "IC50", "result": "86 nM"}
{"SMILES": "CN(C)c1cccc(-c2ccc3ncnc(Nc4ccc(OCc5cccc(F)c5)c(Cl)c4)c3c2)c1", "target or system": "Trypanosoma brucei", "assay": "parasite growth", "quantity": "EC50", "result": "2200 nM"}
{"SMILES": "O=C(C=C(O)C(F)(F)C(F)(F)F)c1cccc(O)c1", "target or system": "Plasmodium falciparum formate-nitrite transporter", "assay": "binding, FCCS", "system": "isolated protein", "quantity": "Ki", "result": "26 ± 3 nM"}
{"SMILES": "[2H]C([2H])([2H])C1(C([2H])([2H])[2H])NC(=O)N(c2ccc(F)c(C(C)(F)F)c2)C1=O", "target or system": "Schistosoma mansoni", "system": "juvenile, infected mice", "setting": "oral, 100 mg/kg single dose", "quantity": "worm burden reduction", "result": "62 to 100% and 100%"}
{"note": "Excerpt of the above:"}
{"SMILES": "NS(=O)(=O)c1nnc(NC(=O)c2ccccc2)s1", "target or system": "Enterococcus faecium", "system": "HM-965", "quantity": "MIC", "result": "5.2 µM"}
{"SMILES": "c1ccc2c(C3NCCc4sccc43)c[nH]c2c1 (stereo not shown)", "target or system": "Escherichia coli", "assay": "efflux pump inhibition", "system": "AG100 AcrAB-TolC expressing", "setting": "50 µM", "how to read": "reference: untreated cells", "quantity": "relative fluorescence index", "result": 0.56}
{"SMILES": "CN1CCN(Cc2cccc(CC(O)Cn3c4ccc(Br)cc4c4cc(Br)ccc43)c2)CC1 (stereo not shown)", "target or system": "Plasmodium", "assay": "parasite growth", "quantity": "IC50", "result": "95 nM"}
{"SMILES": "O=C(CCCOc1ccc(Cl)cc1)N[C@H]1CCOC1=O", "target or system": "Vibrio harveyi", "assay": "bioluminescence, antagonist", "system": "BB120", "quantity": "IC50", "result": "40000 nM"}
